Assay results gathered from unrelated publications.
Each line is one published result; not all experiments were run side by side. Numbers after ± are the reported error.
SLC22A1: Solute carrier family 22 member 1 (SLC22A1, Homo sapiens, UniProt O15245)
UniProt O15245, sequence (whole entry, looked up): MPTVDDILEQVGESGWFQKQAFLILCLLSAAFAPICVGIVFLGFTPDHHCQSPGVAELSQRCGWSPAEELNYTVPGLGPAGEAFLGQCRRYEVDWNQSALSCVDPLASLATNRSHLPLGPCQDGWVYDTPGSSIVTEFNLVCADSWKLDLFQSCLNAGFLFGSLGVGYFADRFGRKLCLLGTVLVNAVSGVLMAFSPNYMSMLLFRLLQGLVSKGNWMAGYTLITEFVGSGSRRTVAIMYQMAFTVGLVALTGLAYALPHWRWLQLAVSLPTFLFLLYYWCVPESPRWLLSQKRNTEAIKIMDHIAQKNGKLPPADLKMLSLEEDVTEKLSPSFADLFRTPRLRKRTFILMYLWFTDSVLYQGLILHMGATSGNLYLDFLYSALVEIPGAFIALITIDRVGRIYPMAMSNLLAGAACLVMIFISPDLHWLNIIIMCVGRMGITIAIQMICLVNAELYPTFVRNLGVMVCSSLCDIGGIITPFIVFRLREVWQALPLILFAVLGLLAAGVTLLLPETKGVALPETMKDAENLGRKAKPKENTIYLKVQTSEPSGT
AHR: Aryl hydrocarbon receptor (AHR, Homo sapiens, UniProt P35869)
UniProt P35869, sequence (whole entry, looked up): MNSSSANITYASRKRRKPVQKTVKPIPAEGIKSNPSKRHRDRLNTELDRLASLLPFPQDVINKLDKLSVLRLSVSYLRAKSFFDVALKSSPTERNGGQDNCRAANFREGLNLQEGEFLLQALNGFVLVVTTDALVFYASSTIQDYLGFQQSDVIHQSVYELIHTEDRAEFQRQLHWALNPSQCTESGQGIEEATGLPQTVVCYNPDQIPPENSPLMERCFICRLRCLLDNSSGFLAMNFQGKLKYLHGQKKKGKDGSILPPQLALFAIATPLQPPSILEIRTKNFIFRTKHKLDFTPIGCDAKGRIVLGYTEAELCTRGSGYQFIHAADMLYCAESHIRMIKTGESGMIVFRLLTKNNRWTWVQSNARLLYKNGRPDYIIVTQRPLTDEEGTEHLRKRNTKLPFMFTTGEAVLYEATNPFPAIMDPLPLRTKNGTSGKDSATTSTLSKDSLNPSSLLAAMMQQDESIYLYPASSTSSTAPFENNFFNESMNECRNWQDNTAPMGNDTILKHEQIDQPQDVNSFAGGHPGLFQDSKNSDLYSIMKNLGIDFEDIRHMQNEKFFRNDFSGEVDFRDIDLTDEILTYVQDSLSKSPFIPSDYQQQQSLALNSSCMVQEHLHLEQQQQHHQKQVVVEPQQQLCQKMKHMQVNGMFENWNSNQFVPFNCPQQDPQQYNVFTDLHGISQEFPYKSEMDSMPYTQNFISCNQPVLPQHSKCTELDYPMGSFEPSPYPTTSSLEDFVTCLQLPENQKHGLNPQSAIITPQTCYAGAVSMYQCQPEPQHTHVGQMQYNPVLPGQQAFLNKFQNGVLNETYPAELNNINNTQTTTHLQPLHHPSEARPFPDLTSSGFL
CYP2E1: Cytochrome P450 2E1 (CYP2E1, Homo sapiens, UniProt P05181)
UniProt P05181, sequence (whole entry, looked up): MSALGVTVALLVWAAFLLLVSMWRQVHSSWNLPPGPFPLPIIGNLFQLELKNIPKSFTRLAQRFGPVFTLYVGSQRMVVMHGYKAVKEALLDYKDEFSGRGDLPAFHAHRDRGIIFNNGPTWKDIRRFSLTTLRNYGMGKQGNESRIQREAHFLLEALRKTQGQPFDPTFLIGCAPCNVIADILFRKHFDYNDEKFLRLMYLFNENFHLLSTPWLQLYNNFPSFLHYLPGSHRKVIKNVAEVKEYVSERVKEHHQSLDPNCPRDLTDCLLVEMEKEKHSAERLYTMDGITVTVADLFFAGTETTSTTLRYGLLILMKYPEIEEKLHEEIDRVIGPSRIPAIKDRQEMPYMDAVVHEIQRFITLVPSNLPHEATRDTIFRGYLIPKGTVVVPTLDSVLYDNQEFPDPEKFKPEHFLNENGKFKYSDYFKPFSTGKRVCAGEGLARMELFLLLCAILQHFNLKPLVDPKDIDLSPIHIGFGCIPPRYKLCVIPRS
ALB: Albumin (ALB, Bos taurus, UniProt P02769)
UniProt P02769, sequence (whole entry, looked up): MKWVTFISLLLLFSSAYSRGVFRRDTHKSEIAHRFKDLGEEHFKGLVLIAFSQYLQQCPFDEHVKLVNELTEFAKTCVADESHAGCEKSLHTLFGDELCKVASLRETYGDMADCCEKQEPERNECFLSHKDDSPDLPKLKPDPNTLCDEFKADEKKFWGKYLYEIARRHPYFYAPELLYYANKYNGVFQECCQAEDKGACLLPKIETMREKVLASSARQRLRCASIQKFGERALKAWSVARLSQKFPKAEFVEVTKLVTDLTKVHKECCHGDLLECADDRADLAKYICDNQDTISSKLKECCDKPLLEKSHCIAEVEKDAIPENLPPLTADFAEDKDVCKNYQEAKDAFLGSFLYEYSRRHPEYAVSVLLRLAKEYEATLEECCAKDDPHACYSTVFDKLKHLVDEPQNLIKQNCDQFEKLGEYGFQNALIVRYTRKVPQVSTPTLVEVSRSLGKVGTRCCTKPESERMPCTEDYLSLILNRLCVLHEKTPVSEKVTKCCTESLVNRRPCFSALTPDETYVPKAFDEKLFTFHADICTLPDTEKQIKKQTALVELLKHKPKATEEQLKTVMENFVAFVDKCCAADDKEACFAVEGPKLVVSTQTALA
UniProt P20813, sequence (whole entry, looked up): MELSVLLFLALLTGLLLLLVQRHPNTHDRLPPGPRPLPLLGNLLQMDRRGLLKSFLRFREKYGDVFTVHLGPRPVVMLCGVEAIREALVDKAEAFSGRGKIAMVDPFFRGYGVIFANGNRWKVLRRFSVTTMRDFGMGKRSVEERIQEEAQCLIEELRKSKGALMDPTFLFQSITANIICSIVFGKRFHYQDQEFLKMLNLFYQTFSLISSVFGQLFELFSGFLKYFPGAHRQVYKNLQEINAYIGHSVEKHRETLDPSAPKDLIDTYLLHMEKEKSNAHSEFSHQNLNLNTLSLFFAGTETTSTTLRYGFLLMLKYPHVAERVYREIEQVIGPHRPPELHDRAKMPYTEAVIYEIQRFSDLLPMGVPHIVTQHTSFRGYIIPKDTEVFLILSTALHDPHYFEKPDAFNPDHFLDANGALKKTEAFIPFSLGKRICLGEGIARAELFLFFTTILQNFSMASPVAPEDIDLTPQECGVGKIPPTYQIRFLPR
UniProt P08183, sequence (whole entry, looked up): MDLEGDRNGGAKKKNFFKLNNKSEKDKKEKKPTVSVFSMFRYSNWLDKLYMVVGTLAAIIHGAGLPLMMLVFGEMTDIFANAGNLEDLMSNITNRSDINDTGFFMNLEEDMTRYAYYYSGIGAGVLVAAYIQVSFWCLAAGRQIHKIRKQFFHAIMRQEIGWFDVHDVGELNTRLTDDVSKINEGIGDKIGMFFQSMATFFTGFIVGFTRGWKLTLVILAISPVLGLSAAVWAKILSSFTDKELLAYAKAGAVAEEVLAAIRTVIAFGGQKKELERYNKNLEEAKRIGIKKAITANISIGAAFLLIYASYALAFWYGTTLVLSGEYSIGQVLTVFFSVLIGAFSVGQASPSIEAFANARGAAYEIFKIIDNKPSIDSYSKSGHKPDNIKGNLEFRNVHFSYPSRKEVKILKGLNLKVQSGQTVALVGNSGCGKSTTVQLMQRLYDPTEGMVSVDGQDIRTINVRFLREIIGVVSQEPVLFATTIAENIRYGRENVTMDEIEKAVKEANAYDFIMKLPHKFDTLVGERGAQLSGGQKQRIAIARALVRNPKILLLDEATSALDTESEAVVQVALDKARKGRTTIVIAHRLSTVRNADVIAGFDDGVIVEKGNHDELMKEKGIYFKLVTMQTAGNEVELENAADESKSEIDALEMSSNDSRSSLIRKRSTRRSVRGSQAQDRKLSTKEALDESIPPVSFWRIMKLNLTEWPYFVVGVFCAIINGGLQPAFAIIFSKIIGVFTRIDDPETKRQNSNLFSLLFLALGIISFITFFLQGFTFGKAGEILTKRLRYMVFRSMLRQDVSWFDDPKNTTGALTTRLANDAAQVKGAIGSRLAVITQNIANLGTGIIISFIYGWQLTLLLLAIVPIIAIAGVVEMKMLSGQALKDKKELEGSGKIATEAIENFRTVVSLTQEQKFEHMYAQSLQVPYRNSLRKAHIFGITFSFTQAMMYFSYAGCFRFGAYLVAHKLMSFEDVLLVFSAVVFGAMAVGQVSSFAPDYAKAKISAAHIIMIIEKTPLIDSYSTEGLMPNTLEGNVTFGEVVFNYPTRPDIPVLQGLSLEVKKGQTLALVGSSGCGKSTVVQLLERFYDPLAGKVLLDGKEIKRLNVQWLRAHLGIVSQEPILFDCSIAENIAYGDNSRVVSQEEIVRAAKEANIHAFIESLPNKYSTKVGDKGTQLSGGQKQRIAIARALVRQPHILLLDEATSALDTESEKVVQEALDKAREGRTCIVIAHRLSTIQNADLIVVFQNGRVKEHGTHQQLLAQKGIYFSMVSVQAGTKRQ
UniProt P00784, sequence (whole entry, looked up): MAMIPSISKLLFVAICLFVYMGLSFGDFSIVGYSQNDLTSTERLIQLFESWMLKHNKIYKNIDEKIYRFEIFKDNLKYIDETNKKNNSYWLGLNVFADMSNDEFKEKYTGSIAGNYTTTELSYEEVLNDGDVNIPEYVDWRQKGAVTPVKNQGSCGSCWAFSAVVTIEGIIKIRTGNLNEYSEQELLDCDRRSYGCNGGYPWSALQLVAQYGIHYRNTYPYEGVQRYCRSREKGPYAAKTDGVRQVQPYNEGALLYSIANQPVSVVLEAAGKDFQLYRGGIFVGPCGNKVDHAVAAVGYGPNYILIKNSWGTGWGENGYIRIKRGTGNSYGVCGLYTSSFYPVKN

Structure (SMILES)	target	assay	system	conditions	how to read	measurement	result
CCOC(=O)c1c(CSc2ccccc2)n(C)c2cc(Br)c(O)c(CN(C)C)c12	SLC22A1	transport, inhibitor	transiently transfected cells	100 µM, 10 (unit not given), with: metformin		inhibition	110%
Clc1ccc(-c2ccc(Cl)cc2Cl)cc1	AHR	reporter gene, antagonist	AZ-AHR cells	40 µM, with: TCDD 4.5 nM	relative to: TCDD 4.5 nM	maximum activity	24%
COc1ccc2cc1Oc1ccc(cc1)C[C@H]1c3cc(c(OC)cc3CCN1C)Oc1c(OC)c(OC)cc3c1[C@H](C2)N(C)CC3	SLCO1B1 (Homo sapiens, UniProt Q9Y6L6)	transport, inhibitor		10 µM, with: EG		inhibition	31.8%
CCC[C@@](N)(CO)CCc1ccc(OCCCCCC(C)C)cc1	Cytochrome P450 2B6 (CYP2B6, Homo sapiens, UniProt P20813)	enzyme activity, inhibitor				IC50	26.9 µM
CC1(C)[C@H](C(=O)OCc2cccc(Oc3ccccc3)c2)[C@@H]1C=C(Cl)Cl	human microsomal CES1	IVIVE from expressed enzymes	human, liver, in vivo scaled	0.1 µM, age-specific		enzyme contribution to CLint	47.8%
CC(C)CC(=O)OC[C@H]1O[C@@](C#N)(c2ccc3c(N)ncnn23)[C@H](O)[C@@H]1O	ABCB1 (Homo sapiens, UniProt P08183)	basolateral to apical transport	Caco-2	90 µM, 2 h		recovery	87.3%
CC[C@H](C)[C@H](NC(=O)[C@H](CCCCN)NC(=O)[C@@H](NC(=O)[C@H](Cc1ccc(O)cc1)NC(=O)[C@H](CCCCN)NC(=O)[C@H](CCCCN)NC(=O)CNC(=O)[C@H](CCCCN)NC(=O)[C@@H](NC(=O)[C@H](C)NC(=O)[C@H](CC(C)C)NC(=O)[C@H](Cc1c[nH]c2ccccc12)NC(=O)CNC(=O)[C@@H](NC(=O)[C@H](Cc1ccccc1)NC(=O)[C@H](CCCCN)NC(=O)[C@H](CC(C)C)NC(=O)[C@H](Cc1ccccc1)NC(=O)[C@H](C)NC(=O)CNC(=O)[C@@H](N)CCSC)C(C)C)[C@@H](C)O)C(C)C)C(=O)N[C@@H](C)C(=O)N[C@@H](Cc1c[nH]c2ccccc12)C(=O)N[C@@H](CC(=O)O)C(=O)N[C@@H](Cc1c[nH]cn1)C(=O)N[C@@H](CCCCN)C(=O)NCC(=O)N[C@H](C(=O)N[C@H](C(=O)N[C@@H](CCSC)C(=O)N[C@@H](CCCCN)C(=O)N[C@@H](Cc1c[nH]c2ccccc12)C(=O)N[C@@H](CC(C)C)C(=O)N[C@@H](CC(N)=O)C(=O)N[C@@H](C)C(=O)NCC(=O)N[C@@H](CCC(N)=O)C(=O)N[C@H](C(=O)N[C@@H](Cc1ccccc1)C(=O)N[C@H](C(=O)N[C@@H](Cc1c[nH]c2ccccc12)C(=O)N[C@H](C(=O)N[C@@H](Cc1ccc(O)cc1)C(=O)N[C@@H](CCC(=O)O)C(=O)N[C@@H](CCC(N)=O)C(=O)N[C@H](C(=O)N[C@@H](CCCCN)C(=O)N[C@@H](CCCCN)C(=O)N[C@@H](CC(C)C)C(=O)N[C@@H](Cc1c[nH]c2ccccc12)C(=O)N[C@H](C(=O)O)[C@@H](C)O)[C@@H](C)CC)C(C)C)[C@@H](C)O)[C@@H](C)O)[C@@H](C)CC)[C@@H](C)O	Papain (Carica papaya, UniProt P00784)		Pediococcus damnosus, CECT 4797	3 h, 37 °C, with: papain 1 mg/mL	relative to: untreated	MIC after protease treatment	no effect
CC1(C)C(/C=C(\Cl)C(F)(F)F)C1C(=O)OC(C#N)c1cccc(Oc2ccccc2)c1 (centres unmarked)	human microsomal CES1	IVIVE from expressed enzymes	human, 5 years old		relative to: total hepatic CLint in vivo	relative enzyme contribution	58.9%
Oc1cc(Cl)cc(-c2cccc(Cl)c2)c1	AHR	reporter gene, antagonist	AZ-AHR cells	25 µM, with: TCDD 4.5 nM	relative to: TCDD 4.5 nM	maximum activity	31%
CC1(C)C(C=C(Cl)Cl)C1C(=O)OC(C#N)c1ccc(F)c(Oc2ccccc2)c1 (centres unmarked)	human cytosolic CES2	IVIVE from expressed enzymes	human, liver, in vivo scaled	0.1 µM, age-specific		enzyme contribution to CLint	0.31%
CCC(C)O (centres unmarked)	CYP2E1	enzyme activity, inhibitor				IC50	630 µM
CN(C)C(=O)COC(=O)Cc1ccc(OC(=O)c2ccc(NC(=N)N)cc2)cc1	SLC22A1	transport, inhibitor	transiently transfected cells	100 µM, 10 (unit not given), with: metformin		inhibition	76.4%
CC(C)[C@H](C(=O)O[C@H](C#N)c1cccc(Oc2ccccc2)c1)c1ccc(Cl)cc1	human microsomal CES1	IVIVE from expressed enzymes	human, 5 years old		relative to: total hepatic CLint in vivo	relative enzyme contribution	44.7%
Clc1ccc(Cl)c(-c2ccccc2Cl)c1	AHR	reporter gene, antagonist	AZ-AHR cells	40 µM, with: TCDD 4.5 nM	relative to: TCDD 4.5 nM	maximum activity	100%
Cc1c(COC(=O)[C@@H]2[C@H](/C=C(\Cl)C(F)(F)F)C2(C)C)cccc1-c1ccccc1 (racemic)	human CYP3A5	IVIVE from expressed enzymes	human, liver, in vivo scaled	0.1 µM, age-specific		enzyme contribution to CLint	1.76%
O=C(O)C(F)(F)C(F)(F)C(F)(F)C(F)(F)C(F)(F)C(F)(F)C(F)(F)F	SLCO2B1 (Homo sapiens, UniProt O94956)	uptake, substrate	CHO cells stably expressing SLCO2B1, HBSS with HEPES	pH 7.4		CLint	10.1 ± 6 µL/min/mg
CC(C)=CC1C(C(=O)OC(C#N)c2cccc(Oc3ccccc3)c2)C1(C)C (centres unmarked)	human microsomal CES1	IVIVE from expressed enzymes	human, liver, in vivo scaled	age-specific		enzyme contribution to CLint	50%
O=C1c2ccccc2C(=O)c2c1ccc1ccccc21	AHR	reporter gene, agonist	Huh-7 reporter cells	22 to 24 h		EC50	2.67 µM
O=C(NCCN1CCCC1)c1cc(-c2ccc(CN3CCOCC3)cc2)nc2ccc(F)cc12	KCNA5 (Homo sapiens, UniProt P22460)	ion current, inhibitor, IonWorks patch clamp		100 µM (highest tested)		inhibition	no inhibition
CCOc1ccc(-c2nc3ccc(-c4nc5ccc(N6CCN(C)CC6)cc5[nH]4)cc3[nH]2)cc1	ALB	binding, fluorescence titration	PBS	1 h		Kd	48 ± 8 µM
S=C=NCCc1ccccc1	CYP2E1	enzyme activity, inhibitor		concentration not given, 30 min, pH 7.4		remaining activity	1.2%
O=C1CCC(N2C(=O)c3ccccc3C2=O)C(=O)N1 (centres unmarked)	SLC22A1	transport, inhibitor	transiently transfected cells	100 µM, 10 (unit not given), with: metformin		inhibition	6.9%
COc1cc(-c2[o+]c3cc(O)cc(O)c3cc2O[C@@H]2O[C@H](CO)[C@@H](O)[C@H](O)[C@H]2O)cc(OC)c1O	ALB	fluorescence quenching		pH 7, 40 °C, with: 1 µM BSA		Kd	77.7 ± 5.73 µM

Some of these lines once more:
Structure (SMILES)	target	assay	system	conditions	how to read	measurement	result
CC[C@H](C)[C@H](NC(=O)[C@H](CCCCN)NC(=O)[C@@H](NC(=O)[C@H](Cc1ccc(O)cc1)NC(=O)[C@H](CCCCN)NC(=O)[C@H](CCCCN)NC(=O)CNC(=O)[C@H](CCCCN)NC(=O)[C@@H](NC(=O)[C@H](C)NC(=O)[C@H](CC(C)C)NC(=O)[C@H](Cc1c[nH]c2ccccc12)NC(=O)CNC(=O)[C@@H](NC(=O)[C@H](Cc1ccccc1)NC(=O)[C@H](CCCCN)NC(=O)[C@H](CC(C)C)NC(=O)[C@H](Cc1ccccc1)NC(=O)[C@H](C)NC(=O)CNC(=O)[C@@H](N)CCSC)C(C)C)[C@@H](C)O)C(C)C)C(=O)N[C@@H](C)C(=O)N[C@@H](Cc1c[nH]c2ccccc12)C(=O)N[C@@H](CC(=O)O)C(=O)N[C@@H](Cc1c[nH]cn1)C(=O)N[C@@H](CCCCN)C(=O)NCC(=O)N[C@H](C(=O)N[C@H](C(=O)N[C@@H](CCSC)C(=O)N[C@@H](CCCCN)C(=O)N[C@@H](Cc1c[nH]c2ccccc12)C(=O)N[C@@H](CC(C)C)C(=O)N[C@@H](CC(N)=O)C(=O)N[C@@H](C)C(=O)NCC(=O)N[C@@H](CCC(N)=O)C(=O)N[C@H](C(=O)N[C@@H](Cc1ccccc1)C(=O)N[C@H](C(=O)N[C@@H](Cc1c[nH]c2ccccc12)C(=O)N[C@H](C(=O)N[C@@H](Cc1ccc(O)cc1)C(=O)N[C@@H](CCC(=O)O)C(=O)N[C@@H](CCC(N)=O)C(=O)N[C@H](C(=O)N[C@@H](CCCCN)C(=O)N[C@@H](CCCCN)C(=O)N[C@@H](CC(C)C)C(=O)N[C@@H](Cc1c[nH]c2ccccc12)C(=O)N[C@H](C(=O)O)[C@@H](C)O)[C@@H](C)CC)C(C)C)[C@@H](C)O)[C@@H](C)O)[C@@H](C)CC)[C@@H](C)O	Papain (Carica papaya, UniProt P00784)		Pediococcus damnosus, CECT 4797	3 h, 37 °C, with: papain 1 mg/mL	relative to: untreated	MIC after protease treatment	no effect
CC1(C)C(/C=C(\Cl)C(F)(F)F)C1C(=O)OC(C#N)c1cccc(Oc2ccccc2)c1 (centres unmarked)	human microsomal CES1	IVIVE from expressed enzymes	human, 5 years old		relative to: total hepatic CLint in vivo	relative enzyme contribution	58.9%
Oc1cc(Cl)cc(-c2cccc(Cl)c2)c1	AHR	reporter gene, antagonist	AZ-AHR cells	25 µM, with: TCDD 4.5 nM	relative to: TCDD 4.5 nM	maximum activity	31%
